# Assay results from different studies.
# Compare with care: the assays were run in different laboratories. ± marks the error that the study gave.
# ABCG2: Broad substrate specificity ATP-binding cassette transporter ABCG2 (ABCG2, Homo sapiens, UniProt Q9UNQ0)
# Sequence of UniProt Q9UNQ0 (whole entry, looked up): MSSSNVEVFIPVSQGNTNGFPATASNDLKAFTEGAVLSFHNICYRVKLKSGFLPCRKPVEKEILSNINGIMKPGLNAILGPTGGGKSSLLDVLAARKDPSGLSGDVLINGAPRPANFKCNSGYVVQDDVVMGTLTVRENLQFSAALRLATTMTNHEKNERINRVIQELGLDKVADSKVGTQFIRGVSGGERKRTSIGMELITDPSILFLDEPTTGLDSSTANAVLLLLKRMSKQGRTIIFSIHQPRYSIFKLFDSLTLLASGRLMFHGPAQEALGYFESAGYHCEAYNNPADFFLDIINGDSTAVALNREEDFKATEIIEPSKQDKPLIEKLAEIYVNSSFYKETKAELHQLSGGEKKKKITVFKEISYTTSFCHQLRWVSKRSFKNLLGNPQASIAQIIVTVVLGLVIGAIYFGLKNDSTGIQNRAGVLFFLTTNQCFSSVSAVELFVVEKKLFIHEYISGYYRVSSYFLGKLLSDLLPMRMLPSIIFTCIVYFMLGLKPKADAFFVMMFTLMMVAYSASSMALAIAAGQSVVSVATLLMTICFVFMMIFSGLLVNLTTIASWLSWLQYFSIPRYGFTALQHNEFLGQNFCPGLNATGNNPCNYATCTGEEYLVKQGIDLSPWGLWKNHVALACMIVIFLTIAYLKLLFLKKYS
# UGT1A1: UDP-glucuronosyltransferase 1A1 (UGT1A1, Homo sapiens, UniProt P22309)
# Sequence of UniProt P22309 (whole entry, looked up): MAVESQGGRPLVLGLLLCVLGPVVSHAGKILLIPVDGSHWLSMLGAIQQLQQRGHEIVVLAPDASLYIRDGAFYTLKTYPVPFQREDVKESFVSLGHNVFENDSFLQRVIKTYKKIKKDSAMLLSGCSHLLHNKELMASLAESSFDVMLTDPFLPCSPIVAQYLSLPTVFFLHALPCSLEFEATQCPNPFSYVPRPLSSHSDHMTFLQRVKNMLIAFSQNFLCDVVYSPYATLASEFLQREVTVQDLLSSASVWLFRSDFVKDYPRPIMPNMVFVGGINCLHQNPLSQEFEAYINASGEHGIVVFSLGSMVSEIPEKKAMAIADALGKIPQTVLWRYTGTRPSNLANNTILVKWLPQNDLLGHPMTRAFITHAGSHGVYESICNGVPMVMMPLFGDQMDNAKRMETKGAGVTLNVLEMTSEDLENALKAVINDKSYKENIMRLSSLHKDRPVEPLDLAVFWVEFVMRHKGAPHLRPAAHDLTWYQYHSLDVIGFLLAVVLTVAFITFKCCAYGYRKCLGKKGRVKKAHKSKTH
# CYP2A6: Cytochrome P450 2A6 (CYP2A6, Homo sapiens, UniProt P11509)
# Sequence of UniProt P11509 (whole entry, looked up): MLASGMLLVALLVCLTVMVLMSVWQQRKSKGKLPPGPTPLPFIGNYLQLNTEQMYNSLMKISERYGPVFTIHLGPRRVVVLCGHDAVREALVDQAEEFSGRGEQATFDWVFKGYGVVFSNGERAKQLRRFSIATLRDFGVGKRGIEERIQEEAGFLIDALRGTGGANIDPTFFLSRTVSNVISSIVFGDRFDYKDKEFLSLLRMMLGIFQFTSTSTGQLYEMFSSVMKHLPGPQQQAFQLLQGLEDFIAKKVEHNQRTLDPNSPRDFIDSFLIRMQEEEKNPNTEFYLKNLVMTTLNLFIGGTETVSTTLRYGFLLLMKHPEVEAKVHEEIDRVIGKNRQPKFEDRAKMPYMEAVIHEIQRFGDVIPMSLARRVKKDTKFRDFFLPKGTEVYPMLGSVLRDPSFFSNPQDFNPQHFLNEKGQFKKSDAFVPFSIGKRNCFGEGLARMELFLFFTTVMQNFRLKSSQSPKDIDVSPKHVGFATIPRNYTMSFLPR
# SLCO1B3: Solute carrier organic anion transporter family member 1B3 (SLCO1B3, Homo sapiens, UniProt Q9NPD5)
# Sequence of UniProt Q9NPD5 (whole entry, looked up): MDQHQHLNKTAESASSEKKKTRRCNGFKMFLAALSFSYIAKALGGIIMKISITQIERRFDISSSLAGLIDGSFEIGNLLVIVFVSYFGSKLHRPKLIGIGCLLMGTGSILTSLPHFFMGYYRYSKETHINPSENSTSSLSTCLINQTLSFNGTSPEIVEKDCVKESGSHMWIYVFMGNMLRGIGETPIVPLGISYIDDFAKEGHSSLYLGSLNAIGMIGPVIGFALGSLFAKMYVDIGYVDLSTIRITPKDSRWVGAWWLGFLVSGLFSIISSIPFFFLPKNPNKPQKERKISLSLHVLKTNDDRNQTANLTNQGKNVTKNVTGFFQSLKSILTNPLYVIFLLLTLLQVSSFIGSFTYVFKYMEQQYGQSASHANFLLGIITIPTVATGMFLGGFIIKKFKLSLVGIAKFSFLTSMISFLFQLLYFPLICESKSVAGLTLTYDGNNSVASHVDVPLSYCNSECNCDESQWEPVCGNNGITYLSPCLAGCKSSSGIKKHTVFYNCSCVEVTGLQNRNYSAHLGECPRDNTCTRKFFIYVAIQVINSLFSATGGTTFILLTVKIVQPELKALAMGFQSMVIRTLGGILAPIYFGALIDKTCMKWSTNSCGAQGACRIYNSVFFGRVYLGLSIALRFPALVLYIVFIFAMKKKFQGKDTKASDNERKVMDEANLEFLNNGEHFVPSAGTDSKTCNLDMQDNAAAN
# Sequence of UniProt P49888 (whole entry, looked up): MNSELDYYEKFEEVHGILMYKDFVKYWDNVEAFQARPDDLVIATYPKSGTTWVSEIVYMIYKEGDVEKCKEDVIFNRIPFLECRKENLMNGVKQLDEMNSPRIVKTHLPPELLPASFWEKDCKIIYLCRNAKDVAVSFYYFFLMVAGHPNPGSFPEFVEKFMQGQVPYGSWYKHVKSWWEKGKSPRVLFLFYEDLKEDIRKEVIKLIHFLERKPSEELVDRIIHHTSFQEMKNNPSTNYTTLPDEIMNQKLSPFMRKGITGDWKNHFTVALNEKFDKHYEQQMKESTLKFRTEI
# Sequence of UniProt P21447 (whole entry, looked up): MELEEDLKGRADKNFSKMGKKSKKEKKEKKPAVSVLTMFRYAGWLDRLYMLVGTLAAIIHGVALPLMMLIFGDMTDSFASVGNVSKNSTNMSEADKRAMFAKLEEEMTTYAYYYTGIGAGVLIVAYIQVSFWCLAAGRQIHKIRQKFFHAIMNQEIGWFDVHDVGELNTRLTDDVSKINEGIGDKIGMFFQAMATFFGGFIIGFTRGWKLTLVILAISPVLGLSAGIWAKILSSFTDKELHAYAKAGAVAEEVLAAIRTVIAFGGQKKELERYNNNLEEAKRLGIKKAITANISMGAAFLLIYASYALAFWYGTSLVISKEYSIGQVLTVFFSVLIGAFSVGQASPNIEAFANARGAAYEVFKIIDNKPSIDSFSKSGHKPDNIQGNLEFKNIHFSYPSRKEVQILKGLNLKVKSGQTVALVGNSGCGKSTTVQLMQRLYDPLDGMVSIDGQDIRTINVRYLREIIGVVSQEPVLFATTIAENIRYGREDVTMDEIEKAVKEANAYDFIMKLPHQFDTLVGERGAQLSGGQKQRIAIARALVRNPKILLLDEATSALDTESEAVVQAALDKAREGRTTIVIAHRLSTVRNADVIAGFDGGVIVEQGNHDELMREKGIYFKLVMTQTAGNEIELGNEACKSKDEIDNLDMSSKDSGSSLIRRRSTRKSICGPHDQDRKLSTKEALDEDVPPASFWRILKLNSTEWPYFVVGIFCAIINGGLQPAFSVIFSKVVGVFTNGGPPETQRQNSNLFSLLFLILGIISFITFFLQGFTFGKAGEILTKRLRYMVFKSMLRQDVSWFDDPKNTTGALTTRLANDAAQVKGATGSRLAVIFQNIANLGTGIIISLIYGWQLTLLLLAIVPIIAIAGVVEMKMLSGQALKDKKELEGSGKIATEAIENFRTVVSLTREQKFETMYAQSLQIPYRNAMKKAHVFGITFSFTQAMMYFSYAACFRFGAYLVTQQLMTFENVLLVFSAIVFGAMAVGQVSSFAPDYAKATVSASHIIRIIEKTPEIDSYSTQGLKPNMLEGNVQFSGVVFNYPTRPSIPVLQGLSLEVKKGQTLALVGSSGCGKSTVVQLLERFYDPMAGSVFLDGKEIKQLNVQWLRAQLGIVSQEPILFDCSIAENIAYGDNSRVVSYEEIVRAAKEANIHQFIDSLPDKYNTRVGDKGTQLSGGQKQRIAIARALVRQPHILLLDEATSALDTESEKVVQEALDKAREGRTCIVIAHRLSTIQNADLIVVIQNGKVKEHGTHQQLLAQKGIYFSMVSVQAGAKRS
Substance,target,assay,system,setting,scale,measurement,value
O=C1[C@H](CC[C@H](O)c2ccc(F)cc2)[C@@H](c2ccc(O)cc2)N1c1ccc(F)cc1,free compound,,"human, male, plasma","oral, 10 mg, steady state, with or without rosuvastatin",,Tmax,7.3 h
CS(=O)(=O)CCNCc1ccc(-c2ccc3ncnc(Nc4ccc(OCc5cccc(F)c5)c(Cl)c4)c3c2)o1,ABCB1 and ABCG2,IVIVE scaling,human,,,BBB passive plus efflux clearance,74.2 mL/min
liraglutide,α1-acid glycoprotein human,equilibrium dialysis,,"10 nM, 4 to 5 h, pH 7.4, 37 °C, ratio 5:1 (80% bound), together with: AAGP 1 mg/mL",,protein binding,83.8%
COc1ccc(-c2cc(N3CCN(C(=O)c4ccoc4)CC3)n3nc(-c4ccccc4)cc3n2)cc1,ABCG2,"JC-1 dye efflux, inhibitor, flow cytometry",ABCG2-overexpressing cells,together with: JC-1 1 µM,,IC50,2370 ± 1800 nM
O=C(O)[C@H]1O[C@@H](Oc2ccc3c(=O)cc(-c4ccccc4)oc3c2)[C@H](O)[C@@H](O)[C@@H]1O,UGT1A1,"glucuronidation, substrate, Supersomes",,,,Km,1.89 ± 0.13 µM
O=C(CCC(C(=O)[O-])N1CCN(C(CCC(=O)NCC(O)CO)C(=O)[O-])Cc2cccc(n2)CN(C(CCC(=O)NCC(O)CO)C(=O)[O-])CC1)NCC(O)CO.[Gd+3] (stereo not shown),metal complex,pH-metric titration,,pH 7.4,,log K,15.5
COc1ccc2[nH]c([S+]([O-])Cc3ncc(C)c(OC)c3C)nc2c1 (stereo not shown),"CYP isoforms, human",inhibitor,human liver microsomes,"Ki and twice Ki, 1.5 h, 37 °C, together with: OMT 50 µM",reference: no inhibitor,MT formation rate,inhibited
C[C@H]1O[C@@H](O[C@H]2[C@@H](O)C[C@H](O[C@H]3[C@@H](O)C[C@H](O[C@H]4CC[C@@]5(C)[C@H](CC[C@@H]6[C@@H]5C[C@@H](O)[C@]5(C)[C@@H](C7=CC(=O)OC7)CC[C@]65O)C4)O[C@@H]3C)O[C@@H]2C)C[C@H](O)[C@@H]1O,P-glycoprotein,,MDCK-MDR1,"0.01 µM, 120 min, pH 7.4, 1% FBS",,efflux ratio,6.75 ± 1.34
Cc1nc2cc(-c3cccc(Cl)c3)nn2c(N2CCN(C(=O)c3ccco3)CC2)c1C,ABCG2,"JC-1 dye efflux, inhibitor, flow cytometry",ABCG2-overexpressing cells,together with: JC-1 1 µM,,IC50,2650 ± 1070 nM
CCn1c2ccccc2c2cc(CNCCCCNC(=O)c3ccc(-c4cccnc4)cc3)ccc21,"Voltage-gated inwardly rectifying potassium channel KCNH2 (KCNH2, Homo sapiens, UniProt Q12809)","potassium current, inhibitor, automated patch clamp",CHO cells expressing hERG,,,IC50,2620 nM
O=C1CC(c2ccccc2)Oc2ccccc21 (stereo not shown),CYP2A6,"substrate, item: hydroxy metabolite M2 formation",,reconstituted system,,Km,41 µM
O=C(c1cccnc1)N1CCN(c2cc(-c3ccccc3)nc3cc(-c4cccc(Cl)c4)nn23)CC1,ABCG2,"JC-1 dye efflux, inhibitor, flow cytometry",ABCG2-overexpressing cells,together with: JC-1 1 µM,,IC50,230 ± 150 nM
O=C(O)[C@H]1O[C@@H](Oc2ccc3c(=O)c(O)c(-c4ccc(O)cc4)oc3c2)[C@H](O)[C@@H](O)[C@@H]1O,UGT1A1,"glucuronidation, substrate, Supersomes",,,,Km,1.3 ± 0.56 µM
CC[C@H](C)[C@H](NC(=O)[C@H](CCC(=O)O)NC(=O)[C@H](CO)NC(=O)[C@@H](NC(=O)[C@@H](N)CO)C(C)C)C(=O)N[C@@H](CCC(N)=O)C(=O)N[C@@H](CC(C)C)C(=O)N[C@@H](CCSC)C(=O)N[C@@H](Cc1cnc[nH]1)C(=O)N[C@@H](CC(N)=O)C(=O)N[C@@H](CC(C)C)C(=O)NCC(=O)N[C@@H](CCCCN)C(=O)N[C@@H](Cc1cnc[nH]1)C(=O)N[C@@H](CC(C)C)C(=O)N[C@@H](CC(N)=O)C(=O)N[C@@H](CO)C(=O)N[C@@H](CCSC)C(=O)N[C@@H](CCC(=O)O)C(=O)N[C@@H](CCCN=C(N)N)C(=O)N[C@H](C(=O)N[C@@H](CCC(=O)O)C(=O)N[C@@H](Cc1c[nH]c2ccccc12)C(=O)N[C@@H](CC(C)C)C(=O)N[C@@H](CCCN=C(N)N)C(=O)N[C@@H](CCCCN)C(=O)N[C@@H](CCCCN)C(=O)N[C@@H](CC(C)C)C(=O)N[C@@H](CCC(N)=O)C(=O)N[C@@H](CC(=O)O)C(=O)N[C@H](C(=O)N[C@@H](Cc1cnc[nH]1)C(=O)N[C@@H](CC(N)=O)C(=O)N[C@@H](Cc1ccccc1)C(=O)O)C(C)C)C(C)C,trypsin (bovine pancreas),"proteolytic degradation, HPLC-UV",,"0.5 mg/mL, 0.5 h, pH 6.5, 37 °C, together with: trypsin with soybean trypsin inhibitor",,remaining intact compound,86%
Cc1coc2c1CC[C@@H](C)C2,CYP2A6,"enzyme activity, inhibitor",,pH 7.4,,kinact,0.0167 s⁻¹
CC(C)(C)c1cc(N2CCN(C(=O)c3ccoc3)CC2)n2nc(-c3ccccc3)cc2n1,ABCG2,"JC-1 dye efflux, inhibitor, flow cytometry",ABCG2-overexpressing cells,together with: JC-1 1 µM,,IC50,11500 nM
Nn1nnc2ccccc21,cytochrome P450 (human intestinal microsomes),"M1 formation, inhibitor",pooled human intestinal microsomes,"concentration not given, 5 min, together with: 3 µM substrate",,inhibition,86%
COc1ccc([C@@H]2CC(=O)c3c(O)cc(O)cc3O2)cc1O,"Sulfotransferase 1E1 (SULT1E1, Homo sapiens, UniProt P49888)",substrate,,10 µM,,specific activity,1.51 ± 0.02 nmol/min/mg
COc1cccc(-c2cc3nc(-c4ccco4)cc(N4CCN(C(C)=O)CC4)n3n2)c1,ABCG2,"JC-1 dye efflux, inhibitor, flow cytometry",ABCG2-overexpressing cells,together with: JC-1 1 µM,,IC50,1900 nM
C[C@H]1O[C@@H](O[C@H]2[C@@H](O)C[C@H](O[C@H]3[C@@H](O)C[C@H](O[C@H]4CC[C@@]5(C)[C@H](CC[C@@H]6[C@@H]5C[C@@H](O)[C@]5(C)[C@@H](C7=CC(=O)OC7)CC[C@]65O)C4)O[C@@H]3C)O[C@@H]2C)C[C@H](O)[C@@H]1O,"ATP-dependent translocase ABCB1 (Abcb1a, Mus musculus, UniProt P21447)",,LLC-PK1 cells expressing mouse Abcb1a,"3.5 h, together with: zosuquidar 1 µM",apical to basolateral,Papp,4.1 ± 0.38 ×10⁻⁶ cm/s
CC(=O)N1CCN(c2cc(-c3ccco3)nc3cc(-c4ccccc4)nn23)CC1,ABCG2,"JC-1 dye efflux, inhibitor, flow cytometry",ABCG2-overexpressing cells,together with: JC-1 1 µM,,IC50,520 nM
O=C(O[C@H]1[C@@H]2C=CO[C@@H](O[C@@H]3O[C@H](CO)[C@@H](O)[C@H](O)[C@H]3O)[C@@H]2[C@@]2(CO)O[C@@H]12)c1ccc(O)cc1,SLCO1B3,"uptake, substrate",HEK293 overexpressing SLCO1B3,5 min,,intrinsic clearance,0.034 µL/min
COc1ccc2[nH]c([S+]([O-])Cc3ncc(C)c(OC)c3C)nc2c1 (stereo not shown),"cytochrome P450, rat",,rat liver microsomes,"100 µM, 60 min, pH 7.4",,inhibition,54%
COc1ccccc1C(=O)N1CCN(c2cc(-c3ccccc3)nc3cc(-c4cccc(Cl)c4)nn23)CC1,ABCG2,"JC-1 dye efflux, inhibitor, flow cytometry",ABCG2-overexpressing cells,together with: JC-1 1 µM,,IC50,4920 ± 4280 nM
C=CC(=O)N1CCC([C@@H]2CCNc3c(C(N)=O)c(-c4ccc(Oc5ccccc5)cc4)nn32)CC1,SLCO1B3,"transport, item: estradiol-17β-glucuronide uptake",HEK293 transfected,0.2 µM,reference: vehicle,remaining activity,95.2 ± 8%
CC(=O)c1cc(C(=O)N[C@@H](C)Cn2ccc(-c3ccc(C#N)c(Cl)c3)n2)[nH]n1,SLCO1B3,"transporter uptake, inhibitor",,,,IC50,> 10000 nM
O=C(c1ccoc1)N1CCN(c2cc(-c3ccc(F)cc3)nc3cc(-c4cccc(Cl)c4)nn23)CC1,ABCG2,"JC-1 dye efflux, inhibitor, flow cytometry",ABCG2-overexpressing cells,together with: JC-1 1 µM,,IC50,2410 ± 520 nM
O=c1c(O)c(-c2ccc(O)cc2)oc2cc(O)ccc12,UGT1A1,"glucuronidation rate, inhibitor",,"5 µM, together with: 3-hydroxyflavone substrate",reference: no inhibitor,inhibition,93.9 ± 2.2%

# Some of these lines once more:
Substance,target,assay,system,setting,scale,measurement,value
O=C(c1cccnc1)N1CCN(c2cc(-c3ccccc3)nc3cc(-c4cccc(Cl)c4)nn23)CC1,ABCG2,"JC-1 dye efflux, inhibitor, flow cytometry",ABCG2-overexpressing cells,together with: JC-1 1 µM,,IC50,230 ± 150 nM
O=C(O)[C@H]1O[C@@H](Oc2ccc3c(=O)c(O)c(-c4ccc(O)cc4)oc3c2)[C@H](O)[C@@H](O)[C@@H]1O,UGT1A1,"glucuronidation, substrate, Supersomes",,,,Km,1.3 ± 0.56 µM
